# Measurements of several laboratories.
Substance,tested on,test,system,setting,quantity,value
Nc1ncnc2c([C@@H]3N[C@H](CO)[C@@H](O)[C@H]3O)c[nH]c12,Lassa mammarenavirus,viral replication,"HeLa, Josiah",6.3 µM,inhibition,3.5%
Cn1cnc(Cn2c(=O)[nH]/c(=N\c3cc4cn(C)nc4cc3Cl)n(Cc3cc(F)c(F)cc3F)c2=O)n1,,,"human, normal renal function","oral, 375 mg","dry mouth TEAE, Mild severity",0%
GGDGKMKDLSPRWYF,human CD4 T cells,AIM,peptide,,responding donors,15%
CC[C@H](C)[C@H](NC(=O)[C@H](CC(C)C)NC(=O)[C@H](Cc1c[nH]c2ccccc12)NC(=O)[C@H](CCC(N)=O)NC(=O)[C@@H](NC(=O)[C@H](Cc1ccccc1)NC(=O)[C@H](C)NC(=O)[C@H](CCCCNC(=O)COCCOCCNC(=O)COCCOCCNC(=O)CC[C@H](NC(=O)CCCCCCCCCCCCCCCCCCC(=O)O)C(=O)O)NC(=O)[C@H](CCC(N)=O)NC(=O)[C@H](C)NC(=O)[C@@H](NC(=O)[C@H](CCCCN)NC(=O)[C@H](CC(=O)O)NC(=O)[C@H](CC(C)C)NC(=O)C(C)(C)NC(=O)[C@@H](NC(=O)[C@H](CO)NC(=O)[C@H](Cc1ccc(O)cc1)NC(=O)[C@H](CC(=O)O)NC(=O)[C@H](CO)NC(=O)[C@@H](NC(=O)[C@H](Cc1ccccc1)NC(=O)[C@@H](NC(=O)CNC(=O)[C@H](CCC(=O)O)NC(=O)C(C)(C)NC(=O)[C@@H](N)Cc1ccc(O)cc1)[C@@H](C)O)[C@@H](C)O)[C@@H](C)CC)[C@@H](C)CC)C(C)C)C(=O)N[C@@H](C)C(=O)NCC(=O)NCC(=O)N1CCC[C@H]1C(=O)N[C@@H](CO)C(=O)N[C@@H](CO)C(=O)NCC(=O)N[C@@H](C)C(=O)N1CCC[C@H]1C(=O)N1CCC[C@H]1C(=O)N1CCC[C@H]1C(=O)N[C@@H](CO)C(N)=O,,,"human, plasma","subcutaneous, 1 mg, single dose, healthy volunteers",half-life,106 h
COc1cc(/C=C2\CCCN([C@@H](C)c3ccc(F)cc3)C2=O)ccc1-n1cnc(C)c1,"Replicase polyprotein 1ab, main protease (rep, Severe acute respiratory syndrome coronavirus 2, UniProt P0DTD1)","viral replication, Gluc reporter",SARS-CoV-2,20 µM,inhibition,-2.73%
CCHLAKALNDFSNSG,human CD4 T cells,AIM,peptide,,responding donors,8%

# Repeated from above:
Substance,tested on,test,system,setting,quantity,value
COc1cc(/C=C2\CCCN([C@@H](C)c3ccc(F)cc3)C2=O)ccc1-n1cnc(C)c1,"Replicase polyprotein 1ab, main protease (rep, Severe acute respiratory syndrome coronavirus 2, UniProt P0DTD1)","viral replication, Gluc reporter",SARS-CoV-2,20 µM,inhibition,-2.73%
